Measurements gathered from unrelated publications.
Protocols differ between the studies behind these lines. “And” joins repeats or separate records; there may be more than shown. Numbers after ± are the reported error.
Genome polyprotein NS3 helicase domain: Genome polyprotein, NS3 helicase domain (Hepatitis C virus genotype 1b, UniProt Q9WMX2)
UniProt P30530, sequence (whole entry, looked up): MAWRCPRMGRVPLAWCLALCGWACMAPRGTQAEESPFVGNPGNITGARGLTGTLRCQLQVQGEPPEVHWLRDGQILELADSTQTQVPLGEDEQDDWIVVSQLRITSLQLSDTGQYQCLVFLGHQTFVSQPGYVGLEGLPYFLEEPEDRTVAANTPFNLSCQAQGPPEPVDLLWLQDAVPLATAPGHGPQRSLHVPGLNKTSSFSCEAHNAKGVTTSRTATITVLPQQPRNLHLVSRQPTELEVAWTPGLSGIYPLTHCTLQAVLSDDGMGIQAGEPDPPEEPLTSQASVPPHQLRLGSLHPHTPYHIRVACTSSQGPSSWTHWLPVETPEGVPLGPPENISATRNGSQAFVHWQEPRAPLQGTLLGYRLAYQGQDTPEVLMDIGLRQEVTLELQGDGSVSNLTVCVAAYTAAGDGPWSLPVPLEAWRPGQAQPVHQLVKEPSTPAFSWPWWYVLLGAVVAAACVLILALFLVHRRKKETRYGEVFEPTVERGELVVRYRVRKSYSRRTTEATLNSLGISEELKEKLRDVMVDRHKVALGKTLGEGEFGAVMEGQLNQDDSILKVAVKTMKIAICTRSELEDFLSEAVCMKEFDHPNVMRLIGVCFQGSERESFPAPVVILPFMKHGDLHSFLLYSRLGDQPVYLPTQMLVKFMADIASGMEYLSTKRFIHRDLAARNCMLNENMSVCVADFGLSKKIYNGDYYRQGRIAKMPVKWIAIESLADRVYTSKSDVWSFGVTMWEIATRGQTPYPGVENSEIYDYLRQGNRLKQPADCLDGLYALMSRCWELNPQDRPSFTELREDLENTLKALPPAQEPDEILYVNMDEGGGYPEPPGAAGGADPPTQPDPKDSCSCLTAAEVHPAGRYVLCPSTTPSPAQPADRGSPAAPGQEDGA
UniProt Q96P65, sequence (whole entry, looked up): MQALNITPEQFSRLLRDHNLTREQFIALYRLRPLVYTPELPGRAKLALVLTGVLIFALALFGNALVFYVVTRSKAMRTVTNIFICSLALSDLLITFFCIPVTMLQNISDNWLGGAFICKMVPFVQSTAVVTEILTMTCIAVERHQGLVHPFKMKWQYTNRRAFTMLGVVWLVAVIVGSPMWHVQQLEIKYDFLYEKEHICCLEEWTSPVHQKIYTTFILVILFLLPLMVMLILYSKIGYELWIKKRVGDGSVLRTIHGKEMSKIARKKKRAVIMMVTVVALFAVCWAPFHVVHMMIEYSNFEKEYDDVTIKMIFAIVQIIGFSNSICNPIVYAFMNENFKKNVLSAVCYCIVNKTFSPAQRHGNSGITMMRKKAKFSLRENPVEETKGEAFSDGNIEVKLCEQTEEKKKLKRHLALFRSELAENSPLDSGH
UniProt P07948, sequence (whole entry, looked up): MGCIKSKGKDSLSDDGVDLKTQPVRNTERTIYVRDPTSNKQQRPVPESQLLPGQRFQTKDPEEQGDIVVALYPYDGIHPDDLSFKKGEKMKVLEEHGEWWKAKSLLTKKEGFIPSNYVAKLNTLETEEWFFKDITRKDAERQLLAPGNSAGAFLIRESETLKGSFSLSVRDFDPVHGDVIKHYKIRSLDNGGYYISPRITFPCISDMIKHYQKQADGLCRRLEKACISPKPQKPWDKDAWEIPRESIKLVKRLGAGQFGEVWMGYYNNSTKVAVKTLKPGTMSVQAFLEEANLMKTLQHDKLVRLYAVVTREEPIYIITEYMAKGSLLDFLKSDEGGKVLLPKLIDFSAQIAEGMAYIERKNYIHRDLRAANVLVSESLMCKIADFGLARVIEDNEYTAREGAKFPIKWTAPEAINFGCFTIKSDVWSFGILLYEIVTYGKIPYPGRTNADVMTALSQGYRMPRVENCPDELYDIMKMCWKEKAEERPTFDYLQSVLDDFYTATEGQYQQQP

| SMILES | target | test | test system | setting | inhibition |
| --- | --- | --- | --- | --- | --- |
| CC(C)Cn1nc(C(=O)Nc2nc(-c3cccnc3)cs2)c2ccccc2c1=O | Trypanothione synthetase (Leishmania infantum, UniProt A4I2Z3) | enzyme activity | – | 25 µM | 13.3 ± 10.5% |
| CN(CCN1CCC(OC(=O)Nc2ccccc2-c2ccccc2)CC1)C(=O)c1ccc(CN2CCC(C(N)=O)CC2)cc1 | rat kainate receptor | radioligand binding | – | 1 µM, together with: [3H]kainic acid 5.0 nM | 0% |
| Cl.Clc1ccc(N2CCN(Cc3c[nH]c4ncccc34)CC2)cc1 | Genome polyprotein NS3 helicase domain | DNA binding, inhibitor | hepatitis C virus | 100 µM, together with: Cy5-dT15 DNA | 12% |
| COCc1c(-c2cc3cc(C)cc(OC)c3s2)c2c(N)ncnn2c1CN1CCNC(=O)C1 | angiotensin-converting enzyme | enzyme activity | – | 10 µM | 11% |
| Cn1cccc1-c1cccnc1 | HTR5A (Homo sapiens, UniProt P47898) | binding | – | 50 µM | 1.6% |
| O=C(Nc1cccnn1)N1CCC(=Cc2cccc(Oc3ccc(C(F)(F)F)cn3)c2)CC1 | QRFPR (Homo sapiens, UniProt Q96P65) | – | – | concentration not given | -1% and -4% |
| COc1cc(Nc2ncc(F)c(Nc3ccc4c(n3)NC(=O)C(C)(C)O4)n2)cc(OC)c1OC | CAMKK1 (Homo sapiens, UniProt Q8N5S9) | KINOMEscan | – | 10 µM | 38% |
| CN1C2CCC1CC(OC(=O)c1c[nH]c3ccccc13)C2.Cl (stereo not drawn) | Genome polyprotein NS3 helicase domain | DNA binding, inhibitor | hepatitis C virus | 100 µM, together with: Cy5-dT15 DNA | 0% |
| NCc1ccc(S(N)(=O)=O)cc1 | Gag polyprotein, nucleocapsid protein p7 (gag, Human immunodeficiency virus type 1 group M subtype B, UniProt P04591) | NCp7-RNA binding, AlphaScreen | HIV-1 | 45 µM | > 50% |
| CC(O)(CS(=O)(=O)c1ccc(F)cc1)C(=O)Nc1ccc(C#N)c(C(F)(F)F)c1 (stereo not drawn) | Genome polyprotein NS3 helicase domain | DNA binding, inhibitor | hepatitis C virus | 100 µM, together with: Cy5-dT15 DNA | 0% |
| c1ccc(C(NCCNC(c2ccccc2)c2ccccc2)c2ccccc2)cc1 | Tyrosine-protein kinase Lyn, isoform B (LYN, Homo sapiens, UniProt P07948) | enzyme activity | – | 10 µM, Eurofins selectivity panel | -9% |
| CN(C(=O)n1cnc(-c2ccc[n+]([O-])c2)c1)C1CCCCC1 | GABA transporter, rat | binding | – | 50 µM, together with: [3H]GABA | 7% |
| NNC(=O)c1ccc(O)cc1 | Genome polyprotein NS3 helicase domain | DNA binding, inhibitor | hepatitis C virus | 100 µM, together with: Cy5-dT15 DNA | 1% |
| CC(=O)NC[C@H]1[C@H](O)[C@H](O)[C@@H]2[C@H](O)C[C@@H](CO)N21 | Spodoptera litura β-N-acetylglucosaminidase | – | crude enzyme | 0.00627 µM, run 2, together with: p-nitrophenyl GlcNAc | 33.9% |
| O=C(Nc1cccnn1)N1CCN([C@@H]2CCOc3cc(C(F)(F)F)ccc32)CC1 | PTAFR (Homo sapiens, UniProt P25105) | binding | – | 20 µM | 84% |
| CN1CCN(c2cc(-c3ccncc3)c(-c3ccc4ccccc4c3)nn2)CC1 | CRHR1 (Homo sapiens, UniProt P34998) | antagonist, FLIPR | – | 10 µM | 1.9% |
| O=C(Nc1cnccc1Cl)N1CCN(Cc2ccc3c(c2)OC(F)(F)O3)CC1 | somatostatin sst1 receptor | – | – | concentration not given | 10% and 9% |
| FC(F)(F)c1cccc(Nc2nc(NCCOc3ccccc3)nc3[nH]cnc23)c1 | AXL (Homo sapiens, UniProt P30530) | enzyme activity, inhibitor, Thermo Fisher kinase screening | – | 5 µM | 9% and 20% |
| CC(C)(C)c1cc(C=C(C#N)C#N)cc(C(C)(C)C)c1O | Genome polyprotein NS3 helicase domain | DNA binding, inhibitor | hepatitis C virus | 100 µM, together with: Cy5-dT15 DNA | 0% |
| CC[C@H](C)[C@H](NC(=O)[C@@H](NC(=O)[C@H](N)Cc1ccccc1)C(C)C)C(=O)N[C@@H](C)C(N)=O | APP (Homo sapiens, UniProt P05067) | amyloid-beta aggregation, thioflavin T fluorescence | – | 1.0 µM, 168 h, together with: 2 µM amyloid-beta | 53.5% |
| C#Cc1n[nH]c2c(-c3cn([C@@H](C)c4ccccn4)c(=O)[nH]c3=O)cc(F)cc12 | LYN (Homo sapiens, UniProt P07948) | kinase activity, inhibitor | – | 100 nM | 6.6% |
| Cc1ncc(C)n2nc(/C=C/c3nc(N4CCCC4)cc(N4CCOCC4)n3)nc12 | I1 receptor | binding | – | 10 µM | -35% |
| N#CC(C#N)=Cc1ccc(O)c(O)c1 | Genome polyprotein NS3 helicase domain | DNA binding, inhibitor | hepatitis C virus | 100 µM, together with: Cy5-dT15 DNA | 0% |
| COc1ccc(N2C(=O)N(c3c(C)cccc3Cl)Cc3cnc(Nc4ccc(C5CCN(C)CC5)cc4OC)nc32)nc1 | IRAK1 (Homo sapiens, UniProt P51617) | kinase activity | – | 0.5 µM | 5.43% |
